Published values collected from several papers.
Every numbered part comes from another study and shows a few of its results, in no order. Numbers after ± are the reported error.
Sequence of UniProt P11388 (whole entry, looked up): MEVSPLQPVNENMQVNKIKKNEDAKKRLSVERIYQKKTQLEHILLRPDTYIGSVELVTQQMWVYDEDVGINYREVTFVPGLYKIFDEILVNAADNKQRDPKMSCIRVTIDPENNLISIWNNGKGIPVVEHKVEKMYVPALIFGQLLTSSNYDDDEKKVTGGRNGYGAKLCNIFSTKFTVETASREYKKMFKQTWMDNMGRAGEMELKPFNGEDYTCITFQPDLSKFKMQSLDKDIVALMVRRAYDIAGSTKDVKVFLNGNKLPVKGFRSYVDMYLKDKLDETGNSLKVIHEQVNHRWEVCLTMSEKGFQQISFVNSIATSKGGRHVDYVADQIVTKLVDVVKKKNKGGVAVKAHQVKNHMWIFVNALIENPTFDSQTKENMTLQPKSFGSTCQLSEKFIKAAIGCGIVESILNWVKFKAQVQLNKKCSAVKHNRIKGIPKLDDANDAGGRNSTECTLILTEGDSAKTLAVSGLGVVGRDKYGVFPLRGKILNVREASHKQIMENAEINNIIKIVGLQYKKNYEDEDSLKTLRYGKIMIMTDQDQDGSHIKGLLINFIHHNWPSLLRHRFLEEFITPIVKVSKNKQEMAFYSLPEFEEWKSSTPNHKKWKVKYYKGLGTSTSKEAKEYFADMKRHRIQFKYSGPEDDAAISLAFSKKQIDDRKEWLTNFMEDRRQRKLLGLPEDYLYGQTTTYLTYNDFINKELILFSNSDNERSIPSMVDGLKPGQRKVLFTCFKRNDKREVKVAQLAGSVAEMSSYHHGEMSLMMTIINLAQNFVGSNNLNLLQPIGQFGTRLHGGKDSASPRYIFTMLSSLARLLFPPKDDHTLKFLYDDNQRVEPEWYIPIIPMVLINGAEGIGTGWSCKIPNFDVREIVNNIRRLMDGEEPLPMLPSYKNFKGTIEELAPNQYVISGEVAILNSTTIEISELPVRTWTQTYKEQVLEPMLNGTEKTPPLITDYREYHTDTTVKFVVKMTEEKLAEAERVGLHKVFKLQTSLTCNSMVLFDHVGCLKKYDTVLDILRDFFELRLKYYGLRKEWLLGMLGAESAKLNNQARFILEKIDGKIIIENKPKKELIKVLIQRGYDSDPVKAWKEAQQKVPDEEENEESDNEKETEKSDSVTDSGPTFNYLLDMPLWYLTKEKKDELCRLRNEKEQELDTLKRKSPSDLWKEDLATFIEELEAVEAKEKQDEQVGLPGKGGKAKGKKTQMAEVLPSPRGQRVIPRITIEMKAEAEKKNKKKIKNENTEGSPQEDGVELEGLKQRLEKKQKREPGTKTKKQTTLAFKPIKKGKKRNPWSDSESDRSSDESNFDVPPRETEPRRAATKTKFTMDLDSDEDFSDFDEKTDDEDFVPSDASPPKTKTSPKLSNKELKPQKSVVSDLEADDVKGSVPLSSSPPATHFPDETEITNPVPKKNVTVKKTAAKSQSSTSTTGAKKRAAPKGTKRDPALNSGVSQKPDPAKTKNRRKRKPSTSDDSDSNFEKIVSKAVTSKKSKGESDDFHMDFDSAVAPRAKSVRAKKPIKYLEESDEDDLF

Series 1 — host: healthy volunteers; notes: single ascending dose; reference: placebo; measurement: adaptive tracking performance
SMILES: Fc1ccccc1Cc1nc(-c2nc(C(F)(F)F)n[nH]2)cn2ccnc12
3 mg: 1.04%
0.3 mg: 0.96%
20 mg: 0.67%

Single results of other studies
B1: susA (Bacteroides thetaiotaomicron, UniProt Q8A1G0); chain TSTIKKVAPTFWWAGMKNPELQILLYGDRISSADVSLSADNITLQEVVKQENPNYLVLYLDLSKAAPQNFDIILKQGKKQTKIPYELKQRRPNASAVEGFDSSDVLYLIMPDRFANGNPSNDIIPGMLEGNVDRNEPFARHGGDLKGIENHLDYIADLGVTSIWLNPIQENDMKEGSYHGYAITDYYQVDRRFGSNEEFRKLTQEANAKGLKVVMDMIFNHCGSDNYLFKDMPSKDWFNFEGNYVQTSFKTATQMDPYASDYEKKIAIDGWFTLTMPDFNQRNRHVATYLIQSSIWWIEYAGINGIRQDTHPYADFDMMARWCKAVNEEYPKFNIVGETWLGNNVLISYWQKDSRLAYPKNSNLPTVMDFPLMEEMNKAFDEETTEWNGGLFRLYEYLSQDIVYSHPMSLLTFLDNHDTSRFYRSEADTKNLDRYKQALTFLLTTRGIPQIYYGTEILMAADKANGDGLLRCDFPGGWPNDTKNCFDAANRTPQQNEAFSFMQKLLQWRKGNEVIAKGQLKHFAPNKGVYVYERKYGDKSVVVFLNGNDREQTIDLVPYQEILPASSAFDLLTEKKVELRNELTLPSREIYLLSF
COC(=O)Nc1c(N)nc(-c2nn(Cc3ccccc3F)c3ncc(F)cc23)nc1N — Cmax (human, plasma; oral, 2.5 mg single dose, alone, geometric mean): 75.7 ng/mL
B1 (susA) — kcat (O=[N+]([O-])c1ccc(O[C@H]2O[C@H](CO)[C@@H](O[C@H]3O[C@H](CO)[C@@H](O[C@H]4O[C@H](CO)[C@@H](O[C@H]5O[C@H](CO)[C@@H](O[C@H]6O[C@H](CO)[C@@H](O[C@H]7O[C@H](CO)[C@@H](O)[C@H](O)[C@H]7O)[C@H](O)[C@H]6O)[C@H](O)[C@H]5O)[C@H](O)[C@H]4O)[C@H](O)[C@H]3O)[C@H](O)[C@H]2O)cc1; steady-state kinetics; pH 7): 13.8 ± 0.3 s⁻¹
COc1cc([C@@H]2c3cc4c(cc3[C@@H](O[C@@H]3O[C@@H]5CO[C@@H](C)O[C@H]5[C@H](O)[C@H]3O)[C@H]3COC(=O)[C@H]23)OCO4)cc(OC)c1O — inhibition (TOP2A (Homo sapiens, UniProt P11388); enzyme activity, inhibitor; 25 µM): 29.7%

Excerpt of the above (single results of other studies):
COC(=O)Nc1c(N)nc(-c2nn(Cc3ccccc3F)c3ncc(F)cc23)nc1N — Cmax (human, plasma; oral, 2.5 mg single dose, alone, geometric mean): 75.7 ng/mL
